Measurements gathered from unrelated publications.
Each numbered part is a random draw from the data of one study; scales do not carry over between parts. Positions count from the first letter of the parent shown.

Series 1 — target: CCND3, cyclin fold, Cln2 fusion (human); method: yeast growth competition, sequencing; medium: yeast; setting: weak parent motif; reference: not given; reading: higher = stronger binding; quantity: normalised enrichment score
Starting sequence: DNAH7 docking peptide (human); HELFQRLDFDNDG
D8A: 0.248
E2A: 0.205
Q5A: -0.0262
N11A: -0.244
D10A: -0.389
R6A: -0.311

Series 2 — method: RNA Bind-n-Seq; molecule type: RNA; medium: in vitro; concentration: 200 nM; setting: whole 134-nt RNA, ends assumed; together with: 150 mM KCl; reference: input library; reading: higher = stronger binding; quantity: log2 enrichment
Target: Fragile X messenger ribonucleoprotein 1, C-terminal low-complexity region (Fmr1, Mus musculus, UniProt P35922)
All sequences stand within: GGGAGUUCUACAGUCCGACGAUC … UGGAAUUCUCGGGUGUCAAGG
GCAGGAAGUAAAAACAAAUGGAAAUGCUUCGGAUAGUGGCAGAAAUGGGGGUUGCUAAGGAAAGGGUGGGAUGGGAGUGGGUAAAGAGUU: 0.44
GUCCUGUGCUACACAUCGUAUGUACCGAAUCGGGGAAAAAGGGGAGGGGUUUUUGGGGAAAGUAUUAUGUUACGCCGUUCGGAUCUGCAC: 0.367
GUCCUGUGCUACACAUCGUAUGUACCGAAUCGGUUUUUUUGGUUUUUUUGGUUUUUGGAAAGUAUUAUGUUACGCCGUUCGGAUCUGCAC: -0.701
UGGGAGGUGGAUUUUGUUUAUUUUUUUAGCUCAUUUCCAGGGGUGGGAAUUUUUUUUUAAUAUGUGUCAUGAAUAAAGUUGUUUUGGAAA: 0.365
CAAGUCCUGUGCUACACAUCGUAUGUACCGAAUCGGGAAAAAAAGGGAGGGUGGGAAAGUAUUAUGUUACGCCGUUCGGAUCUGCACUUC: 0.866
UGGCCCUGGUGGCAUGCGGGGAGGAAGAGGUGGCCUCAUGGAUCGUGGUGGUCCCGGUGGAAUAUUCAGAGGUGGCCGUGGUGGAGACAG: 0.0438
UGCAUUUCCUGAGCUGAAGAAGGACCCAGACAUGGUGAAGGACAUCAUUAAUGAAGAAGAGGUGCAGUUUCUCAAGACUCUCAGCAGAGG: -1.06
CUGUGCUACACAUCGUAUGUACCGAAUCGGGGAAAAAAAGGGGUUUUUUUGGGGUUUGGGGAAAGUAUUAUGUUACGCCGUUCGGAUCUG: -0.259
UUUUCUGUUUGAAACAGUUUUAUACUUUCUGAUAUAGUACUUGAAAUUCUUACCAGAAAAUUACUUUGGAGUUUUGAAGCCUUUAUUAAU: -0.356
ACCAUGCAGGUGGGAAUCUUUGGGAAGUGGGGCAAGGGGGGGAUAGGGAGGGGGGUAACACUUUGGGAACAGGUGGUCCCAGGUCGUUUC: 0.598
CCUGUGCUACACAUCGUAUGUACCGAAUCGGGGCCCCCCCGGCCCCCCCGGCCCCCCCGGGAAAGUAUUAUGUUACGCCGUUCGGAUCUG: -0.426
CACAGACAACACGCACCCACACAGACACAGAGGGAAGGGGUUGGGAUCGGGACAGGGUGCACAGCAGGGCGGGGUAGGACCCCAGCCCCU: 1.19
UCAAGUCCUGUGCUACACAUCGUAUGUACCGAAUCGGUUUGGUUUUUUUGGAGGAAAGUAUUAUGUUACGCCGUUCGGAUCUGCACUUCC: -0.237
UCAGCAACCACCUCAACUCAUUGACUCCGCCAACAUCCGUCAGGAGGAUGCCUUUGAUAACAACAGUGACAUUGCUGAAGAUGGUGGCCA: -1.25

Series 3 — method: protein binding microarray; molecule type: double-stranded DNA, one strand shown; medium: in vitro; concentration: not given; reference: not given; reading: higher = stronger binding; quantity: E-score
Target: Histone acetyltransferase KAT6A, both winged helices, GST fusion (KAT6A, Homo sapiens, UniProt Q92794, residues 1-181)
Setting: 8-mer, flanks averaged, mean of 2 arrays, mostly near background
Construct (chain): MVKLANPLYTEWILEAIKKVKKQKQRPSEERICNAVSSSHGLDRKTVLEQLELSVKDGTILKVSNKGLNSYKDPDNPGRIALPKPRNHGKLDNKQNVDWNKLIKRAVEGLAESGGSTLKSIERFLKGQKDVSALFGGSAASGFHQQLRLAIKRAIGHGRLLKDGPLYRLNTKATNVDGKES
CGTATTCA: 0.176
GTCTGAAA: -0.0759
CTATTCAC: 0.0637
AGCTATAG: -0.13
CATCGAGG: -0.13
GGTCCCAC: -0.0474
AAGAGTCG: -0.00637
CTTAACCC: -0.0936
ACGGATCG: 0.191
ACTGCCCA: -0.256
ATAGGTAC: -0.154
ACCTCCTG: -0.175
CCCATAAA: -0.116
CGCACGTC: 0.146
CGTCTTTC: 0.0105
TGCTGGAA: -0.075

Series 4 — method: universal PBM; molecule type: double-stranded DNA, one strand shown; medium: in vitro; concentration: 600 nM; reading: higher = stronger binding; quantity: E-score
Target: Sal-like protein 4, full length isoform A (SALL4, Homo sapiens, UniProt Q9UJQ4, residues 1-1053)
Sequence of UniProt Q9UJQ4 (whole entry, looked up): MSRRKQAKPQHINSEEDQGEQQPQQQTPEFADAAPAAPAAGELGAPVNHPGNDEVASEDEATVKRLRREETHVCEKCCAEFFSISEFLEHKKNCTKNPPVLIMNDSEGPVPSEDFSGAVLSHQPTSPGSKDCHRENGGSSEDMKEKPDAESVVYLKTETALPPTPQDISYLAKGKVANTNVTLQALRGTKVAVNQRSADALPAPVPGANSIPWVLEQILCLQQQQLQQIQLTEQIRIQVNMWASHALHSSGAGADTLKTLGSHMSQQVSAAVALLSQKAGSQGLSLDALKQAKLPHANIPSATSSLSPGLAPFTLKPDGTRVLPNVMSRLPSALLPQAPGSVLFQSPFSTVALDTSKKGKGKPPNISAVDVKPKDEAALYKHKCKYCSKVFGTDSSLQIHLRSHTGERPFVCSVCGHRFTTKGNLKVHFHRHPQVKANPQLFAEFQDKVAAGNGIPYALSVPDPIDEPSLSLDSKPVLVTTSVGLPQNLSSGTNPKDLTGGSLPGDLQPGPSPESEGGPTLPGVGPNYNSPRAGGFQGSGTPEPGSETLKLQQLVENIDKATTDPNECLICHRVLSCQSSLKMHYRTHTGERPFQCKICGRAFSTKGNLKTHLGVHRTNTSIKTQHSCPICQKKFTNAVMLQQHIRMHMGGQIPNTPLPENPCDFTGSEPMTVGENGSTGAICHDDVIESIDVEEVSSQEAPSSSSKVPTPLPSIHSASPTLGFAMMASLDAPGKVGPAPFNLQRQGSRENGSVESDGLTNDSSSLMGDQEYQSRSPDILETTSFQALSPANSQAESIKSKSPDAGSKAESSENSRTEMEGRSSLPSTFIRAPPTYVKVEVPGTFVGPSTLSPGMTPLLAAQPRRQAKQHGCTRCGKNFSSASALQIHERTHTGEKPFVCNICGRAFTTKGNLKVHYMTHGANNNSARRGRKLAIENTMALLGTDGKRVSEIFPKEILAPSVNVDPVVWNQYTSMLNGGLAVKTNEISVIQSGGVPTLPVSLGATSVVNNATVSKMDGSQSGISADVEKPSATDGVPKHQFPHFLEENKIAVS
Setting: 8-mer, flanks averaged, mean of replicates
AGACATAG: 0.19
CATAACCA: 0.25
CCGAGCCA: -0.24
AGGGCTAT: -0.187
AGGCCTTA: -0.156
CGACTGGC: -0.285
CGCGATTA: -0.0136
CTACTGGC: -0.162
GCCGGGCA: -0.426
GTCACCCA: -0.253
CAGAGAGG: -0.258
GCGATCGC: -0.0869
CGCTGCCC: -0.38
CTGGCGCC: -0.361
GAACACAA: 0.0434
AATTCATC: 0.173
GCCGATAA: -0.0597
GCCAAACA: -0.103
GGCAAGTA: -0.0344

Series 5 — method: RNA Bind-n-Seq; molecule type: RNA; medium: in vitro; concentration: 365 nM; reference: no-protein control; reading: higher = stronger binding; quantity: RBNS enrichment (R)
Target: RNA binding protein fox-1 homolog 2, RRM domain, GST-SBP tag (RBFOX2, Homo sapiens, UniProt O43251-10, residues 100-194)
Setting: natural RNA segment, single round, ends assumed
All sequences stand within: GGGAGUUCUACAGUCCGACGAUC … UGGAAUUCUCGGGUGCCAA
Construct (chain): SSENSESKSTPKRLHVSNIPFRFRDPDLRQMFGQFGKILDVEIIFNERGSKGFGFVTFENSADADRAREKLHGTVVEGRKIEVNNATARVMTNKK
ACAAUAUGACAGUAGUACAACAACCUGUGCCCAAAACACUGACAAGAAAUACAGAGUAAAGCUAAAAUAAUUGUUUACCAAUAUUUUGAGAGGUAACAAAUAGGGAGAUA: 0.296
ACCCUCAAAGAUGCUACUGGGCUUCCUGUGCAUCGCAUUGCUAAAGAGAACUGAUUUCCUAGCAUUCUUCCCUAGUAAAAUCUUUCCCAAUAGAACAGUAUGUUCCCUUA: 1.36
CAUGUAAGAGCCAGGUGUUCAGUGGCAUGUGCUUAAAAGUCGCCCCCAACUAAGGUCUGUGUCGCCUUCUUGUAAAUGUUGUAUAUGUUGUAUUUUGUUGGUAAUUAUUU: 1.54
GGGCCUCGUGUCUGCCUCACUCCCGGGCCCCAGUCCUGGGUGAAGUUGGCAAAGCACUGGGUAUCUUGUGCGGCUGCCGUGGAAGGCGGCCCUGCUCGAUGCAGGGUCUG: 0.247
UCUUUGAUAACCAACCCAGUGAUUUACAUGCUGAUAGCUAAGUGAGUUUUUAAUGGCCAUUGUGUAUGAUUUUGAUGCACAACUAGUUAAAAGCCUUUCAUACCAGUCAG: 0.248
CUCAUCUCCAGCACAGCACAGGCGUGUGCACACAGAGGUGUUCCUUGCAGCCCCCUCCCUCUCAGGUGUCCUGAGAUGCUGUUCCUGGGAGCCCCCUCAGAAAACUGCCU: 0.405
AGACAGUCCUUUCCCACCAUUCCUGCCUUUAAGCCAAAGAAACAAGCUGUGCAGGCAUGGUCCCUUAAGGCACAGUGGGAGCUGAGCUGGAAGGGGCCACGUGGAUGGGC: 0.257
CUUUGAGAGAGGGUUUGGAGGGCAAGGGGCUGCAUUCCUCUGAGGGACUUGGCCUGAGGCCUUUCGGGCCUCUCCAGUGGGUUCUGUUUAUCCUCUCAUGGGUGAUUAUC: 0.275
GUUCCUGCUGGGUGUGGUGGCGCAAGCCUUUAAUCCCUGCACUUGGGAGGCAGCUGCAGAUGGGAUUUCUGAGUUAAGGACAAGGUCUACAGAGUGAGUUCCAGGACAGC: 0.474
GCUGUGUUCAGCACAUUUUAGGUAACAGGACACAACUUGAAACUUUUCAGGAGAGCCUAUUGCCCUACGUGAGCAUUAGGUAAAACUCUUAAAUUUCUGUUUACAUUGAA: 0.24
CAGACCGUGGUGGGCCUUCAAGCUAAGGAGCUUCCUAGGUGAAAGGGGAGAUGUGAGCCUUCUCUGGAGGGAAGUUUCAUGAUUGCAUCUAUAAUGAAUAUAUUGCCUGU: 2.8
GUGGGCUGAAAAACGCCACACUCAUUUCAAGGGGCAAUGUCUGGGGUUUAGAAAUUCAUUUAUAACUGGUUCUCUGAUGUGGGAAAUCCUGAUUCUGUCCCGGGUUCUUU: 0.983

Series 6 — method: aptamer microarray, sandwich; molecule type: DNA with 2'F-ANA; medium: in vitro; concentration: 200 nM; together with: Cy3 exosite-II aptamer, 400 nM; reading: higher = stronger binding; quantity: mean fluorescence intensity; sequence: GGTTGGTGTGGTTGG
Target: Prothrombin, mature alpha-thrombin (F2, Homo sapiens, UniProt P00734)
Setting: whole 15-mer aptamer, many near background
2'F-ANA at 3 4 5 6 7 9 15: 91.2 a.u.
2'F-ANA at 1 5 7 14 15: 46.3 a.u.
2'F-ANA at 1 3 5 10 11 12 13 14: 45 a.u.
2'F-ANA at 2 3 4 5 6 10 11 14: 50 a.u.
2'F-ANA at 1 2 3 6 13 14 15: 59.1 a.u.
2'F-ANA at 2 8 9 12 13 15: 510 a.u.
2'F-ANA at 2 5 9 10 11 14: 47.3 a.u.
2'F-ANA at 1 8 10 12 13 15: 73.5 a.u.
2'F-ANA at 1 2 7 8 9 13 14: 58.1 a.u.
2'F-ANA at 2 3 4 6 7 10 11 14 15: 154 a.u.
2'F-ANA at 6 7 9 10 13 14: 113 a.u.
2'F-ANA at 1 2 4 5 6 8 9 10 11: 52.2 a.u.
2'F-ANA at 2 4 8 13 14 15: 104 a.u.
2'F-ANA at 1 2 3 4 8 10 13 14 15: 67.3 a.u.
2'F-ANA at 4 6 7 9 11 12 13: 225 a.u.
2'F-ANA at 1 4 8 10 13 14: 44.8 a.u.
2'F-ANA at 1 2 3 4 6 7 8 9 10 11 12 15: 91.2 a.u.
2'F-ANA at 3 4 10 11 13 15: 229 a.u.
2'F-ANA at 4 5 6 8 12 13 14: 52.5 a.u.
2'F-ANA at 1 3 4 5: 57.7 a.u.
2'F-ANA at 2 6 7 8 9 10 12 14: 99.9 a.u.
2'F-ANA at 1 5 9 10 12 13 14: 47.6 a.u.
2'F-ANA at 2 4 6 7 8 10 11 14 15: 57.1 a.u.
2'F-ANA at 1 5 6 10 11 12 14 15: 52.5 a.u.
2'F-ANA at 2 3 6 8 10 12 15: 394 a.u.

Repeated from above (series 2):
ACCAUGCAGGUGGGAAUCUUUGGGAAGUGGGGCAAGGGGGGGAUAGGGAGGGGGGUAACACUUUGGGAACAGGUGGUCCCAGGUCGUUUC: 0.598
GUCCUGUGCUACACAUCGUAUGUACCGAAUCGGGGAAAAAGGGGAGGGGUUUUUGGGGAAAGUAUUAUGUUACGCCGUUCGGAUCUGCAC: 0.367
CACAGACAACACGCACCCACACAGACACAGAGGGAAGGGGUUGGGAUCGGGACAGGGUGCACAGCAGGGCGGGGUAGGACCCCAGCCCCU: 1.19
CAAGUCCUGUGCUACACAUCGUAUGUACCGAAUCGGGAAAAAAAGGGAGGGUGGGAAAGUAUUAUGUUACGCCGUUCGGAUCUGCACUUC: 0.866
UGGCCCUGGUGGCAUGCGGGGAGGAAGAGGUGGCCUCAUGGAUCGUGGUGGUCCCGGUGGAAUAUUCAGAGGUGGCCGUGGUGGAGACAG: 0.0438
GCAGGAAGUAAAAACAAAUGGAAAUGCUUCGGAUAGUGGCAGAAAUGGGGGUUGCUAAGGAAAGGGUGGGAUGGGAGUGGGUAAAGAGUU: 0.44
UGGGAGGUGGAUUUUGUUUAUUUUUUUAGCUCAUUUCCAGGGGUGGGAAUUUUUUUUUAAUAUGUGUCAUGAAUAAAGUUGUUUUGGAAA: 0.365
